# Measurements collected from several papers.
# Numbered parts are unrelated; each lists some results of a single study. Substitutions count along the parent as printed.
# Chain of UniProt P61081 (whole entry, looked up): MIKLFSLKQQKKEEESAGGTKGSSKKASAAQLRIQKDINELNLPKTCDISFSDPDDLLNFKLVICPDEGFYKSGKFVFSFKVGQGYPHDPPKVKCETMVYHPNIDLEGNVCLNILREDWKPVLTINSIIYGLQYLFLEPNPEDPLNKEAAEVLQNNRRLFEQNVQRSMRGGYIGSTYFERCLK
# Chain of UniProt Q7Z7E8 (whole entry, looked up): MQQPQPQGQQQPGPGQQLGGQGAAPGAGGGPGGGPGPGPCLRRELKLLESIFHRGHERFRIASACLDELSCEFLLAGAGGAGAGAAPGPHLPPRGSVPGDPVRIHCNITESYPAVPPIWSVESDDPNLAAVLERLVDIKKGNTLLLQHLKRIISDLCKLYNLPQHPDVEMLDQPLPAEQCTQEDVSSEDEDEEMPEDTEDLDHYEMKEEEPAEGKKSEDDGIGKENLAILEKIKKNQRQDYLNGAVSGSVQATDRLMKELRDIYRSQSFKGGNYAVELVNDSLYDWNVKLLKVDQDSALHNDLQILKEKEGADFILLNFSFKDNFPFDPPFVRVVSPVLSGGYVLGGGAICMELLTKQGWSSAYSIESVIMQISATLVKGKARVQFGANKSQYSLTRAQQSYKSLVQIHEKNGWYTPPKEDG
# Chain of UniProt Q9C0C9 (whole entry, looked up): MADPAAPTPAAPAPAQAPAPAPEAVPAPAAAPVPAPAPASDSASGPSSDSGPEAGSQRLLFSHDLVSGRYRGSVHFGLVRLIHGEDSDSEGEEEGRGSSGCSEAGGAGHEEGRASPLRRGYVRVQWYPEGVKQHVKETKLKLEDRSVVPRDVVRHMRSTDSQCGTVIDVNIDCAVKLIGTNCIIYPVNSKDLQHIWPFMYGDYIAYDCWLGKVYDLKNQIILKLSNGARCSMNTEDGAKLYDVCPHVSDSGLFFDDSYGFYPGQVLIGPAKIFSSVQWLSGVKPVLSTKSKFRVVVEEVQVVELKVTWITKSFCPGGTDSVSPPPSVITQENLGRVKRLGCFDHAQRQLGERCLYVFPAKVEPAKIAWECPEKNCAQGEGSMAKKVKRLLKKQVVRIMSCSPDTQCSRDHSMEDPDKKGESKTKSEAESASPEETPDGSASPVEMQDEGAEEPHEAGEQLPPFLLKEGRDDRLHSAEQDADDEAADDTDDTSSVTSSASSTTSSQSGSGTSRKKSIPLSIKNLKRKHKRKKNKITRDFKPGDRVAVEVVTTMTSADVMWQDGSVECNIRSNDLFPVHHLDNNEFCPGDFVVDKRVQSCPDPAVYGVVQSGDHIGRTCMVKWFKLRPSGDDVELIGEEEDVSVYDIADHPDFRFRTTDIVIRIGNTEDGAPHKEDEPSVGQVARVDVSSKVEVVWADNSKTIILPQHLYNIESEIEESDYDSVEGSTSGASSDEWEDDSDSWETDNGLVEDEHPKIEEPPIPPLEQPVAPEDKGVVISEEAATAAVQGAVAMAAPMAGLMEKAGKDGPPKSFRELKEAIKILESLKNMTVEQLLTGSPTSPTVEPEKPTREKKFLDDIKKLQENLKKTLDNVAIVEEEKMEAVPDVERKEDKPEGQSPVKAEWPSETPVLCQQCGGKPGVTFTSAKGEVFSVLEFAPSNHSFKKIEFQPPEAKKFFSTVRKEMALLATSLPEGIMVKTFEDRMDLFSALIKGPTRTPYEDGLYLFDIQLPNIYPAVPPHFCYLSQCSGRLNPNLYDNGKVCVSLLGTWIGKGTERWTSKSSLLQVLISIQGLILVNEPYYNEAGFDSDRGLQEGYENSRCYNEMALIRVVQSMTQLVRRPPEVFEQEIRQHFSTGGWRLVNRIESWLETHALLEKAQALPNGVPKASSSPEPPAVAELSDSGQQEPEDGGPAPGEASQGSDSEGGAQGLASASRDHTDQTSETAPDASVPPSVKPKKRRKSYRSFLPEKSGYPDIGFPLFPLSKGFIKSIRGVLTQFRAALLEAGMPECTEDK
# Chain of UniProt Q712K3 (whole entry, looked up): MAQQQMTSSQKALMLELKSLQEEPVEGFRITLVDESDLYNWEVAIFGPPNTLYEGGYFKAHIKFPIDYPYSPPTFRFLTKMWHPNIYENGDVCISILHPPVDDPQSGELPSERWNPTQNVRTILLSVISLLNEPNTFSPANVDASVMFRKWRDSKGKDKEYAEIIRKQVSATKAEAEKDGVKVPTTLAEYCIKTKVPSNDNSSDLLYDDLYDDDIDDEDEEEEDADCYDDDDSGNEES
# Chain of UniProt P62253 (whole entry, looked up): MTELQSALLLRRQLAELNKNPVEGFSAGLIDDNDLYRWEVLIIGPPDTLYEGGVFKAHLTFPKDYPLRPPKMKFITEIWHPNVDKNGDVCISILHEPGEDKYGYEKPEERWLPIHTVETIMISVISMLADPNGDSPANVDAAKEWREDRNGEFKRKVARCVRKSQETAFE
# Chain of UniProt P68036 (whole entry, looked up): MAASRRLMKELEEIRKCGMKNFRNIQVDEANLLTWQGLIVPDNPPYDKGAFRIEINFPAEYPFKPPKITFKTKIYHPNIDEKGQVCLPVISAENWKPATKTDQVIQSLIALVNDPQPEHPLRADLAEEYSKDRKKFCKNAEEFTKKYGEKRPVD
# Chain of UniProt Q8N2K1 (whole entry, looked up): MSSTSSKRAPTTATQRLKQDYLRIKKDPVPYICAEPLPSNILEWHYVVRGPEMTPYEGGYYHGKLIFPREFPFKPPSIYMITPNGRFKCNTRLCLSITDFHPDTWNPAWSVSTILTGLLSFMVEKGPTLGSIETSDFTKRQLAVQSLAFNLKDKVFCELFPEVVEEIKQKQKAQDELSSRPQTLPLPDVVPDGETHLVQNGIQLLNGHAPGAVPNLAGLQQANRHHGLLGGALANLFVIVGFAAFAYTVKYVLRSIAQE
# Chain of UniProt Q9H832 (whole entry, looked up): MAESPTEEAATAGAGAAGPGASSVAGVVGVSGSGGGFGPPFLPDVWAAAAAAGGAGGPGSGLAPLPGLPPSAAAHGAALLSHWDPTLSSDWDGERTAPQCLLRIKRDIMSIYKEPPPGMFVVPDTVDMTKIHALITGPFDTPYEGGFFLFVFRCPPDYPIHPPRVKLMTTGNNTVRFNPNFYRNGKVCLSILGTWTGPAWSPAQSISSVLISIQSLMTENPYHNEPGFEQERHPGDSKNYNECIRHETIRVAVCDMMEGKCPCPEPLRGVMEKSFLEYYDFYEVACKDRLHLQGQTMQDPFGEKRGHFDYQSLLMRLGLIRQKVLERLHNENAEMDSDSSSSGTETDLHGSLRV

# Series 1
# Target: Sal-like protein 4, full length isoform A (SALL4, Homo sapiens, UniProt Q9UJQ4, residues 1-1053)
# Chain of UniProt Q9UJQ4 (whole entry, looked up): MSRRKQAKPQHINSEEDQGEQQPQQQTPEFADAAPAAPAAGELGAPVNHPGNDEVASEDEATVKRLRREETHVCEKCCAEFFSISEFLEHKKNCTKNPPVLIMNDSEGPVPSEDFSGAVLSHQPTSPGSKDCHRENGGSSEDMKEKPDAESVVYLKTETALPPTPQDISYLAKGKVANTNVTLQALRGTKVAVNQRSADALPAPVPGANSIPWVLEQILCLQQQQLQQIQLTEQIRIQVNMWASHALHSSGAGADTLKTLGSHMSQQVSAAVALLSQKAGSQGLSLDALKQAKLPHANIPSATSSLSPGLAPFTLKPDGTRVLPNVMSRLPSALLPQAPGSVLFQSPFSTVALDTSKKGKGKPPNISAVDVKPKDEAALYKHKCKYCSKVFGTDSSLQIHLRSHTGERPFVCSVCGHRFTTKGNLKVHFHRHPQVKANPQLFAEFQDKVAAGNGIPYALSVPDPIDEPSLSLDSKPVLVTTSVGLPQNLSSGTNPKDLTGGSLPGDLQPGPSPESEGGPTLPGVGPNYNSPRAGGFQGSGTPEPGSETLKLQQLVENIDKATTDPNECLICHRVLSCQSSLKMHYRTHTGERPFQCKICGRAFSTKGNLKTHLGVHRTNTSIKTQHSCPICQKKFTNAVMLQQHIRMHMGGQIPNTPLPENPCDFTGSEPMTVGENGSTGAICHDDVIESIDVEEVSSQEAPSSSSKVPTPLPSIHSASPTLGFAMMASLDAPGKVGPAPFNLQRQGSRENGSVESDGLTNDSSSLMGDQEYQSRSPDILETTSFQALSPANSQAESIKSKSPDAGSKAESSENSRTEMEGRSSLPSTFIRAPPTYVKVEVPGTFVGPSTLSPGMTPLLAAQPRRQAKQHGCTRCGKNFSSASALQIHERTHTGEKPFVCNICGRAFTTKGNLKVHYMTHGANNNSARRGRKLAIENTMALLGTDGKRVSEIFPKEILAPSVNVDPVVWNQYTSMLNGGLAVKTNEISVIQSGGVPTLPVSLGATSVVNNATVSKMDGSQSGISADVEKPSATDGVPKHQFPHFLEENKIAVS
# Method: universal PBM
# Molecule type: double-stranded DNA, one strand shown
# Medium: in vitro
# Concentration: 600 nM
# Setting: 8-mer, flanks averaged, mean of replicates
# Reading: higher = stronger binding
Oligonucleotide,E-score
AAATCCAG,0.0594
ACCTCGAG,-0.0941
CGCTGCAA,0.0472
GGCTATCA,0.0342
CGGTGGTA,-0.193
TGTGAACA,0.00871
GCGAGCAC,-0.238
CCTCTAGC,-0.149
TCCAAGAA,0.0256
ACGCATGC,-0.058
CAAGCCGG,-0.244
GGCGCTAC,-0.275
CACACTAA,0.204
AGATAGAG,0.0567
CCTGGAAG,-0.172
GCGGGGCC,-0.391
CTATCAAG,0.0568
CCTTTGCG,-0.0153
GCGGAATA,0.105
GGCATAAC,0.161
ACTTCGCG,-0.0896
ACGGTCAA,-0.00728
CCTAGCGC,-0.259
CTACTAGA,-0.00551
AAGTATGC,0.123

# Series 2
# Sequence: QLQDIKEQTMCPVCLDRLKNMIFLCGHGTCQLCGDRMSECPICRKAIERRILLY (MIB1 RING domain (UniProt Q86YT6))
# Method: yeast two-hybrid
# Medium: yeast
# Setting: mostly zero background
# Reference: not given
# Reading: higher = stronger interaction
target,lacZ reporter activity
UBE2L3 UBC core domain (UniProt P68036),0
UBE2M UBC core domain (UniProt P61081),3080
UBE2O UBC core domain (UniProt Q9C0C9),0
UBE2Z UBC core domain (UniProt Q9H832),0
UBE2R2 UBC core domain (UniProt Q712K3),0
UBE2G1 UBC core domain (UniProt P62253),0
UBE2J2 UBC core domain (UniProt Q8N2K1),0
UBE2Q1 UBC core domain (UniProt Q7Z7E8),0

# Series 3
# Target: RING finger protein unkempt homolog, zinc fingers 1-6, GST-SBP tag (UNK, Homo sapiens, UniProt Q9C0B0, residues 30-357)
# Method: RNA Bind-n-Seq
# Molecule type: RNA
# Medium: in vitro
# Concentration: not given
# Setting: RNA with constant flanks, human and mouse sites, ends assumed
# Reference: input RNA pool
# Reading: higher = stronger binding
# Constant ends, left off below: GGGAGUUCUACAGUCCGACGAUC … CAACAGAGGAUUGAGCAUCA
# Target sequence (chain): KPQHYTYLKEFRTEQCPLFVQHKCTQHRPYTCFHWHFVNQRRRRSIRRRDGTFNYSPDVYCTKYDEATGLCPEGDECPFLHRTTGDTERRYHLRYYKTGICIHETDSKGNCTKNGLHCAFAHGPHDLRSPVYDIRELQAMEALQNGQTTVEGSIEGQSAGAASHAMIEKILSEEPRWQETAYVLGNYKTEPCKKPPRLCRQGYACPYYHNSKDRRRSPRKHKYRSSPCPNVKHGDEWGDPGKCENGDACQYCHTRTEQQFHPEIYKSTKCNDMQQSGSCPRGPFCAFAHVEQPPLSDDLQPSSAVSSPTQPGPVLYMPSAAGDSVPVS
Oligonucleotide,bound/input enrichment [ratio]
GUUGCAUUUACAACAAGAAUUUAUCACCCAAAUAUUAACAGUAAUGGCAGCAUUUGUCUUGAUAUUCUACGGUCACAGUGGUCUCCAGCACUAACUAUUUCAAAAGUACUUUUGUCCAUC,0.248
GCAAAGAAGUUUCCCUCGCCCUUCUUUCCAAGCAAAAUGUUUACUGUAAUGUAUGUCUGUGUGUCCUUUCCAAAUCUCUUCAGAUUCCGUCAACUUUCCAGAUUUAAAUGUCUCCUGGUA,0.338
GAUCUAAAAAUGGGAAUGAAGUUUGUCAGUGAUGAACGCUACAAUGAAAGUGAAGAUGGUUUGGUUUCUCAUGUAGAUGGCUCCGUAAUUUCCAGGAGGGAGUGGUAUGUCUAACAGCCA,0.184
GUUUGUAAGUCAUCUGAUGAGCUAUCUGGAAUAACAGCUCUAACCUCUGCUUCCUACUCAUAUAAAGGGAGACCCAAUAGUUCUUAUCAGCAGAAGUUUCCAGACAGCCACCUAAAUGAA,0.663
AGGCCCGAACCAAACUUUUCCGGGCCACUCGGCGGCCCGAGACCAGGGGGAAGGGGGGGACAGGGAGAAGGAAGCCGGUGGCGGCGCCUGGGGCUCGCGGGCGAGCCUCCCUCCGCGGCC,0.0875
GUACAGCAGAAACCAGACUGCCGGCCAUAUUGGGAGAAGGAUGACCCUUCCAUGCCUCUGCCCUUUGACCUCACAGACGUGGUUUCCGAGCUCAGAGGCCAGCUGCUGGAAGCAAGAUCC,0.103
CUGGCUGGAGUGUAGGCUGUACCCCAUUUCCUUGGCUCCCAUUAAAAAUCAACAACAUUCUAAUGAUUAGGGAACAACAGAAGGGGAACAGUCAUAGGAUAUACGAGCAGUAUAAAGAUA,0.435
CAGUUUGACACUAAGAUAAUGAACUUCUGUGUGCAUUUUUCUAUGCUUUAUUUUUUAAUGUAGCUUACUUCCUGAGAUUUUGGCUUUGUUUAUACAAUCUGAGGGUGGUUAUAAAUACUG,0.323

# Series 4
# Target: ABI1, truncated, D143A, DHFR fusion (Arabidopsis thaliana)
# Method: DHFR PCA, deep sequencing
# Medium: yeast
# Setting: methotrexate growth selection, single substitutions
# Together with: (+)-ABA 0.0091 µM
# Reference: wild-type fitted maximum
# Reading: higher = stronger binding
# Starting sequence: PYL1, truncated, DHFR fusion (Arabidopsis thaliana); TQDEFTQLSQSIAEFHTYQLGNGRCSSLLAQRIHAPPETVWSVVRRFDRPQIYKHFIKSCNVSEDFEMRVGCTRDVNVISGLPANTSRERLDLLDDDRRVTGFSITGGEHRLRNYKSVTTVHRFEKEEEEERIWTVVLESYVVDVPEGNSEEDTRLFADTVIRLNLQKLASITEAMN; partner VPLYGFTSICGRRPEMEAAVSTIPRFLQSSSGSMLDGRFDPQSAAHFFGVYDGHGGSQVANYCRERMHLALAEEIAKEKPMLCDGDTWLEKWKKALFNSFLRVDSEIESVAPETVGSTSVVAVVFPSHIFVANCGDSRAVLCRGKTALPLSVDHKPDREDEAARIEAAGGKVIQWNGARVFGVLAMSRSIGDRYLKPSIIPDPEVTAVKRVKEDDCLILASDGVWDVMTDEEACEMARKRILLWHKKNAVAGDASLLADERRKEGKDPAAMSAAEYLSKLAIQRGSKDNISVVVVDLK
Variant,relative binding score [%]
V40W,-3.01
R90Y,1.36
T154D,-3.19
N77V,61.2
R113I,9.57
R155G,-1.53
S104W,0.6
Q31S,0.682
H55F,12.5
S26N,-1.76
R163D,-2.48
Y141P,-1.22
R74I,-4.43
P146C,21
S104N,-5.87
R111G,3.55
N177S,38.6
S87K,5.53
R45V,-5.13
Q10A,43.7
V161G,-0.191
T106P,-1.18
D92Y,-5.11
R46T,0.711

# Series 5
# Target: CCNF, cyclin fold, Cln2 fusion (human)
# Method: yeast growth competition, sequencing
# Medium: yeast
# Setting: strong parent motif
# Reference: not given
# Reading: higher = stronger binding
# Starting sequence: E2F1 docking peptide (human); PPVKRRLDLETDH
Variant,normalised enrichment score
PPVKRRLDLETDY [H13Y],7.02
PPVKRFLDLETDH [R6F],2.75
PPVKPRLDLETDH [R5P],-1.18
PPVKRLLDLETDH [R6L],2.95
PPVKRRLDLCTDH [E10C],7.45
PPVKRRLDLETMH [D12M],7.18
PPVKRRLDLETDS [H13S],6.58
PPVKRRLDLETEH [D12E],6.61
PPVKRRLDLETDM [H13M],7.71
PPVKYRLDLETDH [R5Y],-0.0888
PPVKRRLDLETDQ [H13Q],5.94
PPRKRRLDLETDH [V3R],0.751
PPVKRRLGLETDH [D8G],4.32
PPVKRRLDLETDD [H13D],5.11
PPVKRGLDLETDH [R6G],1.29
PPVKRILDLETDH [R6I],2.42
PPVKRRLDLETCH [D12C],8.33
PPVKRSLDLETDH [R6S],2.95
PPVKRRLDLEYDH [T11Y],8.07
PPVKRRLDLQTDH [E10Q],6.75
PAVKRRLDLETDH [P2A],6.66
PPFKRRLDLETDH [V3F],2.89
PPVKRRNDLETDH [L7N],1.23
PEVKRRLDLETDH [P2E],5.41
PFVKRRLDLETDH [P2F],6.66

# Repeated from above (series 5):
Variant,normalised enrichment score
PPVKRRLDLETMH [D12M],7.18
PPVKRRLDLETDS [H13S],6.58
PPVKRRLDLETEH [D12E],6.61
PPVKRRLDLETDM [H13M],7.71
PPVKYRLDLETDH [R5Y],-0.0888
PPVKRRLDLETDQ [H13Q],5.94
PPRKRRLDLETDH [V3R],0.751
PPVKRRLGLETDH [D8G],4.32
PPVKRRLDLETDD [H13D],5.11
PPVKRGLDLETDH [R6G],1.29
PPVKRILDLETDH [R6I],2.42
PPVKRRLDLETCH [D12C],8.33
PPVKRSLDLETDH [R6S],2.95
PPVKRRLDLEYDH [T11Y],8.07
PPVKRRLDLQTDH [E10Q],6.75
